Measurements gathered from unrelated publications.
Every numbered part comes from another study and shows a few of its results, in no order. Substitutions count along the parent as printed.

Sample 1
Target: Interferon regulatory factor 7, full length, phosphomimetic (IRF7, Homo sapiens, UniProt Q92985, residues 1-503, S471D/S472D/S475D/S476D/S477D/S483D/S484D/S487D)
Method: protein-binding microarray
Form: double-stranded DNA, one strand shown
Matrix: in vitro
Tested at: 2200 nM top
Notes: 60-bp whole probe
Added: salmon DNA 0.4 mg/ml
Relative to: random background probes
Direction: higher = stronger binding
Endpoint: fitted relative affinity
Constant ends, left off below: GCCTAGCAC … GTCTTGATTCGCTTGACGCTGCTG
Target sequence (chain): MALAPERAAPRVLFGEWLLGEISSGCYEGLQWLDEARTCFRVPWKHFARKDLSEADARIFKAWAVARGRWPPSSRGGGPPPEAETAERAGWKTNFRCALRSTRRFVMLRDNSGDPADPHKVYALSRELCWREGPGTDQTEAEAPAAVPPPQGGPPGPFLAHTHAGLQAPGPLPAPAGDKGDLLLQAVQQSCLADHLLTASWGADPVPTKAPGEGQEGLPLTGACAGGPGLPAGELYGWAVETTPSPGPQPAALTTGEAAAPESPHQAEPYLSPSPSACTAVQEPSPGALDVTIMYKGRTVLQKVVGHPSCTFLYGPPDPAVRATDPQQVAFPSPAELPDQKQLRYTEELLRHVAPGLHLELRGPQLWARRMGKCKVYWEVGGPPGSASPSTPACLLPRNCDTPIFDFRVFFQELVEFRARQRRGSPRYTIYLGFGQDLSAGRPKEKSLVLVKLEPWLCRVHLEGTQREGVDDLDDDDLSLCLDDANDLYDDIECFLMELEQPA
TTAGGACTGGACTGTCGGTTAGTGCTA: -0.428 z-score
TTTGGTATCCTTTTCCTTTAGTGCTAG: 2.6 z-score
TAACCTTGAACTTTGGCCTCGTGCTAG: 0.23 z-score
TTAGGTTTCGGGTATCGGTTAGTGCTA: 6.55 z-score
GACGGAGTGCTTATCCTGACGTGCTAG: 0.588 z-score
GACGGTCTCCTTTTACTGACGTGCTAG: 1.41 z-score
TTAGATTTCGGGACTAGATTAGTGCTA: 0.677 z-score
GCCGGTATCGGTATCGGGACGTGCTAG: 0.607 z-score
GACGGTTTCCTATCCCTGACGTGCTAG: 2.6 z-score

Sample 2
Target: CCNB2, cyclin fold, Cln2 fusion (human)
Method: yeast growth competition, sequencing
Matrix: yeast
Notes: strong parent motif
Relative to: not given
Direction: higher = stronger binding
Endpoint: normalised enrichment score
Parent: PKMYT1 docking peptide (human); SFEPRNLLSLFED; partner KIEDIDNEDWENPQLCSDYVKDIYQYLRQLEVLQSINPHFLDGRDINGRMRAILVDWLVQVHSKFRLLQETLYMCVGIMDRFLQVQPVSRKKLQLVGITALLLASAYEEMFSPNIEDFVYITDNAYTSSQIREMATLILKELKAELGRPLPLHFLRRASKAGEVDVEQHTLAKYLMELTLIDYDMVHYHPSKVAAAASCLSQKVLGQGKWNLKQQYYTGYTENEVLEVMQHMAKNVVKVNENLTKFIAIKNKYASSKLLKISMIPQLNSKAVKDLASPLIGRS
P4Y: -1.06
S9Y: 1.24
D13V: 0.463
E12S: -0.351
D13N: 1.13
L8H: 0.0215

Sample 3
Target: TAR DNA-binding protein 43, full length, His tag (TARDBP, Homo sapiens, UniProt Q13148, residues 1-414)
Method: RNA Bind-n-Seq
Form: RNA
Matrix: in vitro
Tested at: 20 nM
Notes: 6-mer, flanks averaged, single round
Added: 150 mM LiCl
Relative to: input library
Direction: higher = stronger binding
Endpoint: 6-mer enrichment (R)
AUUGAC: 0.874
GAAUAG: 0.973
CAGUCA: 0.81
AAGGUG: 1.14
AGCAAA: 0.847
ACCACA: 0.895
UUCUCG: 0.876
AGUCCC: 0.958

Other studies, line by line
PhoQ, residues 284 288 289 292 302 303 AGGLSV  fold induction (PhoP, residues 12 14 15 18 19 SQCLL (Escherichia coli, UniProt P23836); Sort-seq, refers to: YFP reporter; E. coli; PhoQ-PhoP variant library, added: 10 µM Mg2+; relative to: high Mg2+ state, higher = stronger signaling): 10.5
